Assay results pooled from the literature.
Parts stem from different laboratories: compare values within a part only.
UniProt Q9NRM7, sequence (whole entry, looked up): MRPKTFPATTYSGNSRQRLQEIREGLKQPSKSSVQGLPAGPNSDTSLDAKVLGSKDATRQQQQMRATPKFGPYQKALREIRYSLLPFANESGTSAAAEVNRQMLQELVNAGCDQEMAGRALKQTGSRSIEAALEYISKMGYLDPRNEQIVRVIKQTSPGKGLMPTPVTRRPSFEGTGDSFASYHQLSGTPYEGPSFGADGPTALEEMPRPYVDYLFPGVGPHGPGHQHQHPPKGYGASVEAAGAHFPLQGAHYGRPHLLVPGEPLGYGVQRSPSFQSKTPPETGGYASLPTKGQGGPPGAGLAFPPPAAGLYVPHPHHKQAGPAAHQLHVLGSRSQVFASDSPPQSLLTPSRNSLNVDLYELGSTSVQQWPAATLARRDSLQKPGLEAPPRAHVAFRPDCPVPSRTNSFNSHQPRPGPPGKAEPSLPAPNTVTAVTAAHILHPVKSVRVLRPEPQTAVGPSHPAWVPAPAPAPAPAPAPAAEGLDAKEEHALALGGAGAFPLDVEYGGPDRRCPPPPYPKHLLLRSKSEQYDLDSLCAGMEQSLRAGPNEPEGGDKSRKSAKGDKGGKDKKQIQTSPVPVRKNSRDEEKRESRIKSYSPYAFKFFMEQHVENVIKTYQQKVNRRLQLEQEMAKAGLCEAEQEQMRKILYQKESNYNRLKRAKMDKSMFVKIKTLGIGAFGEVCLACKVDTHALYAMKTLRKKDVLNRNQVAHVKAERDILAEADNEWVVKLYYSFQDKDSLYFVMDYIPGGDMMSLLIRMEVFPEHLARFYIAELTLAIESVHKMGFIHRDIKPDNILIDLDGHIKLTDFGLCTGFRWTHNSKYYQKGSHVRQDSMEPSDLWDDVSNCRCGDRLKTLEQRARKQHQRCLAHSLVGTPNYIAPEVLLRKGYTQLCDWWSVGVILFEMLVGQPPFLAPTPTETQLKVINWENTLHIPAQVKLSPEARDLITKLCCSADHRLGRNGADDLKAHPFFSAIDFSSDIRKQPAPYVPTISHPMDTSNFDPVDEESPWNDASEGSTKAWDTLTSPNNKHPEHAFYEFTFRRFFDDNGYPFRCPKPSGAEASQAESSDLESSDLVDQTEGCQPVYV

Study 1 — method: RNA Bind-n-Seq; molecule type: RNA; sample: in vitro; concentration: 15 pmol; notes: 4-mer, random 30-nt RNA, single round; together with: 3 µM RocA, 2 mM AMP-PNP; baseline: mean of 4-mers; direction: higher = stronger binding
Target: Eukaryotic initiation factor 4A-I (EIF4A1, Homo sapiens, UniProt P60842, residues 1-406, full length assumed)
UniProt P60842, sequence (whole entry, looked up): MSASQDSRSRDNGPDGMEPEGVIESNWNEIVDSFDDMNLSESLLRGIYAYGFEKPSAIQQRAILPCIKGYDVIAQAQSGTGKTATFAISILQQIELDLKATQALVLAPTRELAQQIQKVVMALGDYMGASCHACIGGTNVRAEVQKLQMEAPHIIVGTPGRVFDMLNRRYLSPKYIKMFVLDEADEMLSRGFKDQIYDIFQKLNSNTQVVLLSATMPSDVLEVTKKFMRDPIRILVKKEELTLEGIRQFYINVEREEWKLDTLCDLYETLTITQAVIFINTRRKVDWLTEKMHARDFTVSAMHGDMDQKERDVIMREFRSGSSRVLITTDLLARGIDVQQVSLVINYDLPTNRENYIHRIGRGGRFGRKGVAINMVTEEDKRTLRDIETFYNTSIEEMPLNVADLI
For `ACAC`, “4-mer enrichment Z-score” read -1.31.
`UGAC` — result for “4-mer enrichment Z-score”: -0.532.
Under “4-mer enrichment Z-score”, `CCUU` is recorded as -1.1.
`AGUC`: “4-mer enrichment Z-score” -0.654.
For `GUUG`, “4-mer enrichment Z-score” read 0.94.
For `GAGG`, “4-mer enrichment Z-score” read 1.82.
For `CAAC`, “4-mer enrichment Z-score” read -1.3.
`UCCA` — result for “4-mer enrichment Z-score”: -1.36.

Study 2 — method: protein binding microarray; molecule type: double-stranded DNA, one strand shown; sample: in vitro; concentration: not given; baseline: not given; direction: higher = stronger binding
Target: Histone acetyltransferase KAT6A, winged helix 1, GST fusion (KAT6A, Homo sapiens, UniProt Q92794, residues 1-85)
Notes: 8-mer, flanks averaged, mean of 2 arrays, mostly near background
Residues (chain): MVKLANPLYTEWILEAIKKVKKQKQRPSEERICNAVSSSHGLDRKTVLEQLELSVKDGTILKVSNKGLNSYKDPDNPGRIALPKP
`GCGTGGAA` gave an E-score of 0.213.
With `CGTGGAAC` the E-score was 0.166.
The E-score of `CCGTCACA` is reported as 0.149.
For `CATGGTCC`, the E-score was -0.0465.
With `CATGCTGG` the E-score was -0.269.
`GGATCTGA` has an E-score of -0.109.
The E-score of `CAAATCTA` is reported as -0.212.
`ACATTCAC` gave an E-score of -0.148.

Study 3 — method: competition protein-binding microarray; molecule type: double-stranded DNA, one strand shown; sample: in vitro; concentration: 2 µM; together with: Pho4 competitor, 0.05 µM; direction: higher = stronger binding
Target: Centromere-binding protein 1, full length, His-tagged (CBF1, Saccharomyces cerevisiae, UniProt P17106, residues 1-351)
UniProt P17106, sequence (whole entry, looked up): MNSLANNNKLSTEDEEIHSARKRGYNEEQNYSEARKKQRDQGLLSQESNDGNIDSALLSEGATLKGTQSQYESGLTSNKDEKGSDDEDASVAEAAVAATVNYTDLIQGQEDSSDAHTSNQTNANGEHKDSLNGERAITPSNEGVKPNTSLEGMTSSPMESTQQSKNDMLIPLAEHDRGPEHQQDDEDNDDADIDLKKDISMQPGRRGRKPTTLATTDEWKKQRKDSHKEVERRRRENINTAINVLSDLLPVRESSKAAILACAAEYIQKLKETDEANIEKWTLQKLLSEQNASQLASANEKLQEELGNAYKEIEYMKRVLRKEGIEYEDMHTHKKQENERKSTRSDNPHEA
Notes: whole 60-bp probe, lowest competitor level
`GAGTGGGCTGGCGGCAGCATGCAGAGCGTTATCGCTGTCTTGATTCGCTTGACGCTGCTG` has a fluorescence intensity of 51.2 a.u.
`CGGGGTTAAGTTTGAATCGTGGGTGGCTTGCAGCAGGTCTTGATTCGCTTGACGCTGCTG` gave a fluorescence intensity of 71.8 a.u.
`GCAATACTTATTTTTGAAGCCGGATCCCTAATTGCTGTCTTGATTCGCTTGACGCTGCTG` has a fluorescence intensity of 71.5 a.u.
For `AAATTACTAAGTTATCACGTGTTTTACCCCGTATGAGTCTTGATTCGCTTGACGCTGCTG`, the fluorescence intensity was 4920 a.u.
`TTGCTGTTTCTAAGAAGCGTGGGACAACGCAATGAAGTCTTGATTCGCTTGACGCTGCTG` gave a fluorescence intensity of 68.5 a.u.
For `GTCTTGTCTCATTGAACAGTGGGTGTCCCCACTTCAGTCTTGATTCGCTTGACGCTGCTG`, the fluorescence intensity was 79.3 a.u.
`AGGATCTAAAACCATCACATGATGTTCTAGTGCGTCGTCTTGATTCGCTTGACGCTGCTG` has a fluorescence intensity of 1020 a.u.
The fluorescence intensity of `CGTCGTCTGGGACGTAGTGTGACAGGATGTCTTCCAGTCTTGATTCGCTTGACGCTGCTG` is reported as 73.6 a.u.

Further values, each from its own experiment
With `CCC(=O)N[C@H]1CC[C@@H](C(=O)N(C)c2ccc(-c3nc4ccccc4o3)cc2)C1` the remaining binding was 67% (Serine/threonine-protein kinase LATS2 (LATS2, Homo sapiens, UniProt Q9NRM7); cell-free assay, competition with immobilised ligand; 1 µM).

For quick reference, copied from above (study 2):
`GCGTGGAA` gave an E-score of 0.213.
With `CGTGGAAC` the E-score was 0.166.
The E-score of `CCGTCACA` is reported as 0.149.
For `CATGGTCC`, the E-score was -0.0465.
